Results from different studies.
Compare with care: the assays were run in different laboratories. ± marks the error that the study gave.
GBA1 R534H: Lysosomal acid glucosylceramidase (GBA1, Homo sapiens, UniProt P04062, R534H)
Chain of UniProt P04062 (whole entry, unmodified, looked up): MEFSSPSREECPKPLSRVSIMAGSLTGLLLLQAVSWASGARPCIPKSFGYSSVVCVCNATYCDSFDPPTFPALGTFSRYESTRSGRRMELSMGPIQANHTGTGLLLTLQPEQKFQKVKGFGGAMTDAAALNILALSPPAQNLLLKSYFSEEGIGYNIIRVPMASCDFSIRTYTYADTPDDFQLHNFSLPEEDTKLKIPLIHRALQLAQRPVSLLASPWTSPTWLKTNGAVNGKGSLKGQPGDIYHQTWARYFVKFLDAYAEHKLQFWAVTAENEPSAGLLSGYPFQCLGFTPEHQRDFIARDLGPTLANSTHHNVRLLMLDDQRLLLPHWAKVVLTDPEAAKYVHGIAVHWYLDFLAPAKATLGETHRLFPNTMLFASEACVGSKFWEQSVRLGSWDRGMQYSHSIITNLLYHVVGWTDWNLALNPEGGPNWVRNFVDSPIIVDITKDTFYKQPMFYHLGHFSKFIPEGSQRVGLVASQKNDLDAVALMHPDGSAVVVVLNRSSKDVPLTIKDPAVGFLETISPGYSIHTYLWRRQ

| SMILES | target or system | test | test system | conditions | scale | measurement | value |
| --- | --- | --- | --- | --- | --- | --- | --- |
| c1ccc(-c2n[nH]cc2-c2ccnc3ccccc23)nc1 | FPK1 (Candida albicans) | kinase binding, MIB/MS competition | Candida albicans lysate | 10 µM | relative to: DMSO | log2 fold change | -0.1 |
| CNS(=O)(=O)Nc1nccc(Cc2c(C)c3ccc(Oc4ncccc4F)cc3oc2=O)c1F | Hs 294T | cell viability | – | 7 days | – | IC50 | 5.06 nM |
| CCOc1cncc(-c2ccc(NC(=O)C3(c4ccnc(NS(=O)(=O)C5CC5)n4)CCOCC3)nc2)n1 | JHH-6 | cell growth, CellTiter-Glo | – | 72 h | – | IC50 | 1890 nM |
| COc1cc(O)ccc1CCC(c1ccc(O)cc1)c1cc2c(c(C)c1O)OC(c1ccc(O)cc1)CC2 (mixture of isomers) | – | – | human blood | 0.3 µM, together with: A23187 | – | arachidonic acid level | 87900 ± 9780 pg/mL |
| O=c1[nH]cc(C(c2cccc(Cl)c2)c2c[nH]c(=O)[nH]c2=O)c(=O)[nH]1 | HIV-1 subtype C | p24 antigen production, p24 ELISA | – | 1.95 µg/mL | – | inhibition | < 25% |
| COC1CN([C@H]2CC[C@H]([C@@]3(C)Oc4c(Cl)cc(C(=O)NCc5c(SC)cc(C)[nH]c5=O)c(C)c4O3)CC2)C1 | – | RNA-seq, item: FAM110B mouse homolog | mouse, HT-1376 xenograft, whole blood | dose not given | relative to: vehicle | log2 fold change | 1.36 |
| C=C(NC(=O)c1csc(-c2nc3c(cc2O)-c2nc(cs2)C(=O)NC(C(C)O)C(=O)NC(=C(C)OC)c2nc(cs2)C(=O)NC2c4nc(cs4)C(=O)NC(COC(=O)c4c5c6c(cccc6n4O)COC(=O)C(OC4CC(C)(O)C(N(C)C)C(C)O4)C2OC5)c2nc-3cs2)n1)C(N)=O (stereo not shown) | Streptococcus pneumoniae | – | -4, immunocompromised mice, lung infection, lung | 8 mg/kg/day three times daily, 24 h post-dose | – | bacterial load | 3.92 log CFU/g |
| OC[C@@H]1[C@@H](O)[C@H](O)[C@@H](O)CN1CCCCCOCc1ccc(-c2ccc3c(c2)OCCO3)cc1 | GBA1 R534H | inhibitor, 4MU-β-D-glucopyranoside | – | together with: 4MU-β-D-glucopyranoside | – | IC50 | 250 nM |
| Cn1ncc2cc(-c3cncc(Cl)c3N3CCC4(CCNC4=O)CC3)ccc21 | LS174T | gene expression, microarray, item: RAG1 mRNA | – | concentration not given, 24 h | relative to: untreated cells | log2 fold change | 2.23 |
| CCc1sc(C(=O)NC2CCN(C)CC2)cc1Br | Trypanosoma cruzi | reporter mRNA translation, inhibitor, item: capped polyadenylated Renilla luciferase mRNA | cell-free extract | concentration not given | relative to: control RNA | relative translation | 107% |
| O=c1[nH]cc(C(c2ccccc2Br)c2c[nH]c(=O)[nH]c2=O)c(=O)[nH]1 | HIV-1 subtype C | p24 antigen production, p24 ELISA | – | 1000 µg/mL | – | inhibition | 88% |
| CC(=O)c1cccc(CN2CCCC(CCC(=O)NCc3ccc(F)c(F)c3)C2)c1 (stereo not shown) | Trypanosoma cruzi | reporter mRNA translation, inhibitor, item: capped polyadenylated Renilla luciferase mRNA | cell-free extract | concentration not given | relative to: control RNA | relative translation | 110% |
| CCCCOCCCCCN1C[C@H](O)[C@@H](O)[C@H](O)[C@H]1CO | GBA1 R534H | inhibitor, 4MU-β-D-glucopyranoside | – | together with: 4MU-β-D-glucopyranoside | – | IC50 | 30000 nM |
| CC1(C)C[N+]2=Cc3ccc4[n]3[Au-]23[n]2c(ccc2-c2nc5ccccc5nc2-4)C=[N+]3C1.F[P-](F)(F)(F)(F)F | human ACTN3 291-bp linear dsDNA | high-resolution melt | – | 10.1 µM | – | melting temperature | 85 °C |
| CC1=C[C@@H](O/C=C2/C(=O)O[C@H]3c4ccccc4C[C@@H]23)OC1=O | Phelipanche ramosa | seed germination | – | 1 µM | relative to: (±)-compound | Emax | 100% |
| CC(=O)[O-].O.[Cu+2].[O-]c1ccc(Br)cc1C=NCCN1CCOCC1 | – | nitric oxide scavenging | – | 40 µM | – | inhibition | 14.3% |
| CC(C)c1ccc(N(C)c2ccc3c(c2)OCC[C@H]3CNc2cnccc2C(=O)O)cc1 | SNU-C1 | cell viability, CellTiter-Glo | – | 7 days | – | IC50 | ≥ 10000 nM |
| C=CC(=O)Nc1cccc(Cn2ncc3cnc(Nc4cnn(CCOC)c4)nc32)c1 | human ABL1(H396P)-phosphorylated | KINOMEscan | – | 100 nM | relative to: control | binding | 8.2% |
| COCCOCCOCCNC(=O)Cc1cc(CC(=O)N[C@H]2C[C@H]3C(=O)Nc4cc(OCCOCCOCCOC)cc(n4)C(=O)N4CCC[C@H]4C(=O)Nc4cc(OCCOCCOCCOC)cc(n4)C(=O)N4CCC[C@H]4C(=O)Nc4cc(OCCOCCOCCOC)cc(n4)C(=O)N3C2)cc(CC(=O)N[C@H]2C[C@H]3C(=O)Nc4cc(OCCOCCOCCOC)cc(n4)C(=O)N4CCC[C@H]4C(=O)Nc4cc(OCCOCCOCCOC)cc(n4)C(=O)N4CCC[C@H]4C(=O)Nc4cc(OCCOCCOCCOC)cc(n4)C(=O)N3C2)c1 | – | anion binding, ITC | water/acetonitrile 70 vol% (87.1 mol%) | 298 K, together with: sodium sulfate | – | ΔG | -6.358 ± 0.0239 kcal/mol |
| CN1CCCNC(=O)c2cccc(c2)C(=O)NCCCN(C)CCCNc2cccc3c2C(=O)c2cccc(c2C3=O)NCCC1 | SAS | RNA-Seq, item: GOLGA4 mRNA | – | 1 µM, 6 h | relative to: untreated cells | log2 fold change | -0.55 |
| CCN(CC)CC(=O)Nc1cccc(-n2cc(-c3ccc4ccc(-c5cn(-c6cccc(NC(=O)CN(CC)CC)c6)nn5)cc4c3)nn2)c1 | RCC4 | PCR angiogenesis array, item: ANGPT1 | – | 5 x IC50, 4 h, normoxia | relative to: untreated | fold regulation | -1.06 |
| CC1CCC2C(C)(C)C(O)CCC2(C)C12Cc1c(O)cc(CO)c(C=O)c1O2 (stereo not shown) | StaI (Stachybotrys chartarum) | substrate | – | 30 min, pH 7.0, 45 °C | – | Vmax | 12.3 nmol/min/mg |
| Nc1ncc(-c2cc(-c3cnn(CC(F)(F)F)c3)ncc2F)nc1C(=O)NC1CNCC(F)C1 (stereo not shown) | TIE1 | KINOMEscan | – | 1 µM | relative to: DMSO control | remaining binding | 40% |
| Cc1ncsc1-c1ccc(C(C)NC(=O)C2CC(O)CN2C(=O)C(NC(=O)CCCCCCCCCCN2CCCC(Nc3ncc(Cl)c(Nc4ccccc4S(=O)(=O)C(C)C)n3)C2)C(C)(C)C)cc1 (stereo not shown) | 22Rv1 | RNA-seq, item: PTPDC1 mRNA | – | concentration not given | relative to: DMSO | log2 fold change | -2.26 |
| C=CC(=O)N1[C@@H](c2ccc3c(c2)OCO3)c2[nH]c3ccccc3c2C[C@H]1C(=O)N1CCN(C)CC1 | human cyclin E1 wild type-3xFLAG:CDK2 | co-IP with TMT proteomics, item: SAMHD1 | – | concentration not given, Q9Y3Z3 | relative to: wild type DMSO | relative co-enrichment | 85% |
